Assay results pooled from the literature.
Numbered parts are unrelated; each lists some results of a single study.

Series 1
Target: Prothrombin, mature alpha-thrombin (F2, Homo sapiens, UniProt P00734)
Technique: aptamer microarray, sandwich
Form: DNA with 2'F-ANA
Medium: in vitro
Concentration: 200 nM
Setting: whole 15-mer aptamer, many near background
With: Cy3 exosite-II aptamer, 400 nM
Direction: higher = stronger binding
Oligonucleotide: GGTTGGTGTGGTTGG
`2'F-ANA at 1 2 5 6 11 12 13 14 15` — result for “mean fluorescence intensity”: 56.1 a.u.
For `2'F-ANA at 2 3 4 5 8 11 14 15`, “mean fluorescence intensity” read 76.6 a.u.
`2'F-ANA at 1 6 7 10 11 12 15` — result for “mean fluorescence intensity”: 63.3 a.u.
For `2'F-ANA at 4 6 7 8 9 10 12 13`, “mean fluorescence intensity” read 94.3 a.u.
`2'F-ANA at 1 2 3 4 6 7 8 10 11 13 14`: “mean fluorescence intensity” 105 a.u.
For `2'F-ANA at 1 4 9 10 11 13 14`, “mean fluorescence intensity” read 46.1 a.u.
`2'F-ANA at 2 4 5 6 9 10 13`: “mean fluorescence intensity” 48.3 a.u.
Under “mean fluorescence intensity”, `2'F-ANA at 2 3 5 6 8 10 12 14` is recorded as 85.1 a.u.
`2'F-ANA at 3 5 6 7 12 14` — result for “mean fluorescence intensity”: 73.9 a.u.
`2'F-ANA at 3 4 5 9 10 11 12 13 15`: “mean fluorescence intensity” 56.3 a.u.
Under “mean fluorescence intensity”, `2'F-ANA at 1 6 7 8 12 13 14` is recorded as 73.5 a.u.
Under “mean fluorescence intensity”, `2'F-ANA at 3 5 8 9 12 13` is recorded as 188 a.u.
Under “mean fluorescence intensity”, `2'F-ANA at 1 3 6 7 9 10 11 13 15` is recorded as 71.7 a.u.
`2'F-ANA at 8 10 12 13 15` — result for “mean fluorescence intensity”: 194 a.u.
`2'F-ANA at 5 8 9 10 11 13 14`: “mean fluorescence intensity” 46 a.u.
For `2'F-ANA at 2 5 8 10 12 13 14`, “mean fluorescence intensity” read 63 a.u.

Series 2
Target: Fragile X messenger ribonucleoprotein 1, C-terminal low-complexity region (Fmr1, Mus musculus, UniProt P35922)
Technique: RNA Bind-n-Seq
Form: RNA
Medium: in vitro
Concentration: 200 nM
Setting: whole 134-nt RNA, ends assumed
With: 150 mM KCl
Reference: input library
Direction: higher = stronger binding
For `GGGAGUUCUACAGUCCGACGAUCCUAGAGAGCUGUAGUACACAUGGAUGAACGACGAGAAGAACAAAUUGUACAGUUACUGAAUUCUGUUCAAGCGAAGAAUGAUAAAGAGUCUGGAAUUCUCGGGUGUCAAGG`, the log2 enrichment was -0.198.
For `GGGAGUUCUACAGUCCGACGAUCUGGCCCUGGUGGCAUGCGGGGCGGAAGAGGUGGCCUCAUGGAUCGUGGUGGUCCCGGUGGAAUGUUCAGAGGUGGCCGUGGUGGAGACAGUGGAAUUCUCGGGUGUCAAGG`, the log2 enrichment was -0.147.
`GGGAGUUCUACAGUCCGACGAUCUCCUGUGCUACACAUCGUAUGUACCGAAUCGGGUUUUUGGGGUUUUUGGGUUUUUGGGGAAAGUAUUAUGUUACGCCGUUCGGAUCUGCAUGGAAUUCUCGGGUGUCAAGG` gave a log2 enrichment of 0.52.
With `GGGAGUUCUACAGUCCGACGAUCUCAAGUCCUGUGCUACACAUCGUAUGUACCGAAUCGGCCGGGGCCGGGGCCGGGAAAGUAUUAUGUUACGCCGUUCGGAUCUGCACUUCCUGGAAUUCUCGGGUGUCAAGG` the log2 enrichment was -0.259.
For `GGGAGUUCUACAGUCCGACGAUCCAAGCCAAGGAAAUGGUGUUAGAGUUAAUUCGUGAUCAAGGCGGUUUCAGAGAAGUUCGGAAUGAGUAUGGGUCAAGAAUAGGAGGAAAUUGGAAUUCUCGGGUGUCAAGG`, the log2 enrichment was -1.07.
`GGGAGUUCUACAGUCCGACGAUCCUCAAGUCCUGUGCUACACAUCGUAUGUACCGAAUCGGAGGUUUUUGGUUUGGAAAGUAUUAUGUUACGCCGUUCGGAUCUGCACUUCCAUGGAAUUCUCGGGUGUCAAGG` gave a log2 enrichment of -0.689.
For `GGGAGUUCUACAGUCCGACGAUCCACAGACAACACGCACCCACACAGACACAGAGGGAAGGGGUUGGGAUGGGGACAGGGUGCACAGCAGGGCGGGGGAGGACCCCAGCCCCUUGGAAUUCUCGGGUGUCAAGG`, the log2 enrichment was 1.23.
With `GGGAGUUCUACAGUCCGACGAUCGUCCUGUGCUACACAUCGUAUGUACCGAAUCGGGUUUUUUGGUUUUUUGGGUUUUUUGGAAAGUAUUAUGUUACGCCGUUCGGAUCUGCAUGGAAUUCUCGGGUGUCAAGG` the log2 enrichment was -0.668.
With `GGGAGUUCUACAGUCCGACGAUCGCAGGAAGUAAAAACAAAUGGAAAUGCUUCGGAUAGUGGCAGGGGUGGGGGUUGCUAAGGAAACGGUGGGAUGGGAGUGGGUAAAGAGUUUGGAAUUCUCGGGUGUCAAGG` the log2 enrichment was 0.243.
The log2 enrichment of `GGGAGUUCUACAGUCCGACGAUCUGGGAGGUGGAUUUUGUUUAUUUUUUUAGCUCAUUUCCAGGGGUGGGAAUUUUUUUUUAAUAUGUGACAUGAAUAAAGUUGUUUUUGAAAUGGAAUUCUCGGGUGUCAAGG` is reported as -0.00661.

Series 3
Target: Histone acetyltransferase KAT6A, both winged helices, GST fusion (KAT6A, Homo sapiens, UniProt Q92794, residues 1-181)
Technique: protein binding microarray
Form: double-stranded DNA, one strand shown
Medium: in vitro
Concentration: not given
Setting: 8-mer, flanks averaged, mean of 2 arrays, mostly near background
Reference: not given
Direction: higher = stronger binding
Target sequence (chain): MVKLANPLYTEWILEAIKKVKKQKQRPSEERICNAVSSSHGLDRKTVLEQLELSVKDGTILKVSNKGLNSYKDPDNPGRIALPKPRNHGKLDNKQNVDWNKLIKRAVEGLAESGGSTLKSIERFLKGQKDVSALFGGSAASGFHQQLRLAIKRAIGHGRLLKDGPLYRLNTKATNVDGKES
The E-score of `CTCCAAGC` is reported as -0.0776.
For `ACAAAATG`, the E-score was -0.0574.
With `AGAGATCA` the E-score was -0.325.
The E-score of `AGGGAAAG` is reported as -0.139.
`CTAATAGA` has an E-score of -0.155.
`AAATAGGG` has an E-score of -0.129.
`CCCTACAA` has an E-score of -0.213.
`CCCCGTCC` gave an E-score of 0.172.
The E-score of `GCATCAGA` is reported as 0.00671.
With `CACAGGTA` the E-score was -0.0587.
With `CCGGGTAG` the E-score was 0.0951.
For `AATTACTC`, the E-score was -0.0727.
`GGACGCAA` has an E-score of 0.0559.
With `CACGCGGA` the E-score was 0.256.
The E-score of `TCTGAAGA` is reported as -0.0682.
For `AGTCATCG`, the E-score was -0.0346.
`AGTTTTCC` has an E-score of 0.121.
The E-score of `CGTGTACA` is reported as 0.12.
With `CACCTTTC` the E-score was -0.146.
The E-score of `ACGAGTCG` is reported as 0.00645.
The E-score of `CCATACAG` is reported as -0.183.
`CGAATGTA` has an E-score of 0.0174.
`ACTCTCAG` gave an E-score of -0.135.
The E-score of `GTTGACAA` is reported as 0.0192.
`AGGTCAAG` has an E-score of -0.195.

Series 4
Target: RNA binding protein fox-1 homolog 2, RRM domain, GST-SBP tag (RBFOX2, Homo sapiens, UniProt O43251-10, residues 100-194)
Technique: RNA Bind-n-Seq
Form: RNA
Medium: in vitro
Concentration: 365 nM
Setting: natural RNA segment, single round, ends assumed
Reference: no-protein control
Direction: higher = stronger binding
Construct (chain): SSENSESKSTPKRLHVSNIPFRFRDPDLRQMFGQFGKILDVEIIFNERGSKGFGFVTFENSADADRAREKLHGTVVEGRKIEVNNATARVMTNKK
Under “RBNS enrichment (R)”, `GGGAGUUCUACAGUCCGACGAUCUUUUCCUAAAAAAAAAAAAUGGGAUUUUAGUUCUUAUUCUGUGAUAACUAUCCUCCUCAUAUAAUACUAUUCUUUUUGACACCAUUUGAAGGAACCAAUAUUUGGACCUUUGGAAUUCUCGGGUGCCAA` is recorded as 0.486.
For `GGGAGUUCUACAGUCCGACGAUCUCACUGGGUUUCUGGAUUAUUCCCAUAAAGACUGCCUGUCAAGAGGCCGGAGGUGUGUGUGGGGGGUUGCUCUGUUGUUUCCUUCCUAAUAAAAUAAAGACGUGUUGCCUUGGAAUUCUCGGGUGCCAA`, “RBNS enrichment (R)” read 0.604.
For `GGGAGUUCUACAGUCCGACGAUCCACUGCCUUCGUGAAGGAUGCUCCGAGCCAUGAAACAUGUUCCUAGAUGUCGUUAAUCCCACCCACGUCCACCAUGACAGGCCUGUGUCAGCCUCCCUGAAACACAGCAGUGGAAUUCUCGGGUGCCAA`, “RBNS enrichment (R)” read 0.477.
Under “RBNS enrichment (R)”, `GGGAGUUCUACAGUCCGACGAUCCUCCUCACGUCAGGAGCAAGCAGCCGUGGACCCCUAAGCCGAGCUGGUGGAAGGCCCCUCCCCAUCGCCAGCCGGGCCCUCAUGCUGACCUUGCAAAUUCAGCCGCUGCUUGGAAUUCUCGGGUGCCAA` is recorded as 0.251.
Under “RBNS enrichment (R)”, `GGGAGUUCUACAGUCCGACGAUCAAAUGGUCCCAUUGGAGAGUCUCCUAAAUAGACCUUCCAGGCAGAACCGCAAGCUCAAAAUCUUUGUAUAGUUUUGAAAAUUGAGGAGUAGCUUUGUUUGGAAGCCUUUCUGGAAUUCUCGGGUGCCAA` is recorded as 0.351.
`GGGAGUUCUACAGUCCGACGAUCGAGGGGGCAACGGUGUGAUCCAGCUGGCUCAUCCCAGCCCAGGUGGGCCAAUUAUUCAAUUUUCAAGAAUUUUGUUGCAAGCCAGUUGUCAAACACAGCCAUUAUAAUUAUGGAAUUCUCGGGUGCCAA`: “RBNS enrichment (R)” 0.396.
Under “RBNS enrichment (R)”, `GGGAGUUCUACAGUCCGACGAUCAGUGUAAGAACUGUACAUUGUGAGCUCUGGUUAUUUUUCUCUUGUACCAUAGAAAAAUGUAUAAAAAUUAUCAAAAAGCUAAUGUGCAGGGAUAUUGCCUUAUUUGUCUGUGGAAUUCUCGGGUGCCAA` is recorded as 0.444.
For `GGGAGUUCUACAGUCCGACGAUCGUAAAUAUUUUCACCACGAUCGAUUAGACUGGGAUGAACACAGUUCUGCCGGCAGAUAUGUUUCAAGACGCUGUAAACCUCUGAAGGAAUUUAUGCUUUCUCAAGAUGUUUGGAAUUCUCGGGUGCCAA`, “RBNS enrichment (R)” read 0.398.
Under “RBNS enrichment (R)”, `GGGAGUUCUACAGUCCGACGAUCCUCCAGAGUUGAGCUUGUCCUUAUCUAGAAACAUGUGAAGAUGCCCAAGAGCCUGGAGGCACUGCUGUCCUUCCUGCAGAAACAGUUUCUCCUCCUCCCCUCAGCCUUGUUGGAAUUCUCGGGUGCCAA` is recorded as 0.683.

A few entries again (series 1):
`2'F-ANA at 1 6 7 10 11 12 15` — result for “mean fluorescence intensity”: 63.3 a.u.
`2'F-ANA at 3 5 6 7 12 14` — result for “mean fluorescence intensity”: 73.9 a.u.
`2'F-ANA at 1 2 5 6 11 12 13 14 15` — result for “mean fluorescence intensity”: 56.1 a.u.
Under “mean fluorescence intensity”, `2'F-ANA at 2 3 5 6 8 10 12 14` is recorded as 85.1 a.u.
Under “mean fluorescence intensity”, `2'F-ANA at 1 3 6 7 9 10 11 13 15` is recorded as 71.7 a.u.
For `2'F-ANA at 1 4 9 10 11 13 14`, “mean fluorescence intensity” read 46.1 a.u.
Under “mean fluorescence intensity”, `2'F-ANA at 1 6 7 8 12 13 14` is recorded as 73.5 a.u.
